Results from different studies.
Protocols differ between the studies behind these lines. ± gives the spread as reported.
Organism: Plasmodium falciparum

O=S(=O)(c1ccc(-c2ccc3nccc(Nc4ccnnc4)c3c2)cc1)N1CCOCC1 — EC50 (parasite growth, SYBR Green; D6): 17000 nM
CCONC(=O)N1CCC[C@H](C(=O)N[C@H](C)c2nc(-c3ccc(C#N)cc3)cs2)C1 — EC50 (SYBR Green growth; asexual blood-stage parasites, 3D7; 72 h): 43 ± 4.6 nM
O=S(=O)(c1ccc(-c2ccc3nccc(Nc4ccncn4)c3c2)cc1)N1CCOCC1 — EC50 (parasite growth, SYBR Green; W2): > 20000 nM
CCOC(=O)c1cn(CC)c2cc(N3CCC(C)CC3)c(F)cc2c1=O — EC50 (parasite growth, [3H]hypoxanthine incorporation; NF54; 72 h): 47 nM
Cc1ccc(-c2csc(CNC(=O)[C@H]3CCCN(C(=O)COCC(F)(F)F)C3)n2)cn1 — EC50 (parasite growth, SYBR Green; 3D7, asexual blood stage; 72 h): 3.9 ± 0.53 nM
COc1ccc(Nc2ccnc3ccc(-c4ccc(S(=O)(=O)N5CCOCC5)cc4)cc23)cc1C — EC50 (parasite growth, SYBR Green; D6): 260 nM
N#Cc1ccc(-c2csc(CNC(=O)[C@H]3CCCN(C(=O)COC4CC4)C3)n2)cc1 — EC50 (SYBR Green growth; asexual blood-stage parasites, 3D7; 72 h): 7.7 ± 0.81 nM
Cc1c(Cc2ccc(C(F)(F)F)nc2)c[nH]c1C(=O)NC(C)c1ncn(C)n1 (centres unmarked) — EC50 (parasite growth; 3D7): 1300 nM
Cc1cnnc(Nc2ccnc3ccc(-c4ccc(S(=O)(=O)N5CCOCC5)cc4)cc23)c1 — EC50 (parasite growth, SYBR Green; W2): 2800 nM
O=C(NCc1nc(-c2ccccc2)cs1)[C@H]1CCCN(C(=O)COc2ccccc2)C1 — EC50 (SYBR Green growth; asexual blood-stage parasites, 3D7; 72 h): 760 ± 240 nM
CCn1cc(C)c2c([C@H](O)c3cnc(C(F)(F)F)c(Cl)c3)n(C)nc2c1=O — EC50 (parasite growth; 3D7): 10 nM
COCC(=O)N1CCC[C@H](C(=O)NCc2nc(-c3cccnc3)cs2)C1 — EC50 (SYBR Green; 3D7; 72 h): 90 ± 15 nM
CCOCC(=O)N1CCCC(C(=O)NCc2nc(-c3ccccc3)co2)C1 (centres unmarked) — EC50 (SYBR Green growth; asexual blood-stage parasites, 3D7; 72 h): 220 ± 46 nM
O=S(=O)(c1ccc(-c2ccc3nccc(Nc4nnc(C5CC5)s4)c3c2)cc1)N1CCOCC1 — EC50 (parasite growth, SYBR Green; D6): 590 nM
CCN1CCN(Cc2ccc(Nc3nc4ccc(Oc5ccnc(NC(=O)C6CCN(C)CC6)c5)cc4[nH]3)cc2C(F)(F)F)CC1 — EC50 (parasite growth, SYBR Green I; Dd2; 72 h): 400 ± 40 nM
C[C@H]1[C@@H](O)O[C@@H]2O[C@@]3(C)CC[C@H]4[C@H](C)CC[C@@H]1[C@@]24OO3 — EC50 (NF54; 72 h, stage V gametocytes): 39 nM
COc1ccc(-c2c(C)nn3c(N)c(C#N)cnc23)cc1OC — EC50 (parasite growth, [3H]-hypoxanthine incorporation; Dd2; 72 h): 295 nM
CCn1cc(C)c2c([C@H](O)c3ccc(C(F)(F)F)nc3)n(C)nc2c1=O — EC50 (parasite growth; 3D7): 20 nM
N#Cc1cnc(Nc2ccnc3ccc(-c4ccc(S(=O)(=O)N5CCOCC5)cc4)cc23)cn1 — EC50 (parasite growth, SYBR Green; D6): 550 nM
CC[C@@](N)(c1cnc(C(F)(F)F)c(Cl)c1)c1c2ncn(C3CC3)c(=O)c2nn1C — EC50 (parasite growth): 6.4 nM
Cc1c(C2(c3ccc(C(F)(F)F)nc3)CC2)c[nH]c1C(=O)NC(C)c1c[nH]cn1 (centres unmarked) — EC50 (parasite growth; 3D7): 520 nM
Cc1ccc(-c2csc(CNC(=O)[C@H]3CCCN(C(=O)COCCF)[C@H]3C)n2)cn1 — EC50 (SYBR Green growth; asexual blood-stage parasites, 3D7; 72 h): 4.8 ± 1.8 nM
Cn1nc2c(=O)n(CCC3CC3)ccc2c1Cc1ccc(C(F)(F)F)nc1 — EC50 (parasite growth; 3D7): 12600 nM

Excerpt of the above:
N#Cc1ccc(-c2csc(CNC(=O)[C@H]3CCCN(C(=O)COC4CC4)C3)n2)cc1 — EC50 (SYBR Green growth; asexual blood-stage parasites, 3D7; 72 h): 7.7 ± 0.81 nM
Cc1c(Cc2ccc(C(F)(F)F)nc2)c[nH]c1C(=O)NC(C)c1ncn(C)n1 (centres unmarked) — EC50 (parasite growth; 3D7): 1300 nM
